Results pooled from the literature.
A part holds a random share of what one study measured.

Sample 1
Target: Histone acetyltransferase KAT6A, both winged helices, GST fusion (KAT6A, Homo sapiens, UniProt Q92794, residues 1-181)
Method: protein binding microarray
Molecule type: double-stranded DNA, one strand shown
Medium: in vitro
Concentration: not given
Setting: 8-mer, flanks averaged, mean of 2 arrays, mostly near background
Reference: not given
Direction: higher = stronger binding
Residues (chain): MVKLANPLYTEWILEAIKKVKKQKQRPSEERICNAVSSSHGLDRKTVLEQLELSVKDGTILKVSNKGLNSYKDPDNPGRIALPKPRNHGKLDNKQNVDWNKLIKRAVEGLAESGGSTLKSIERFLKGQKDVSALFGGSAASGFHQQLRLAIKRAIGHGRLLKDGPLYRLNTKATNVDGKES
For `AGAACTCC`, the E-score was -0.157.
With `AGATTATG` the E-score was -0.0338.
The E-score of `CCTGGTGC` is reported as -0.0973.
For `CACGTTTA`, the E-score was -0.0932.
For `AACGCATA`, the E-score was 0.145.
`GAATCCTC` gave an E-score of -0.212.
`GCGAAAAC` gave an E-score of 0.125.
`AAATACCA` gave an E-score of -0.165.
The E-score of `TGGCTACA` is reported as -0.264.
`ATGCCACG` has an E-score of 0.00034.
`ATTCGTTA` gave an E-score of -0.0318.
`GTGTCACA` has an E-score of 0.0973.
For `CCTCACAC`, the E-score was -0.137.
`ACCTCGAA` has an E-score of -0.121.
With `GTGCGCAC` the E-score was 0.351.
The E-score of `CACACTGG` is reported as -0.234.
With `CGTCGCGA` the E-score was 0.324.
With `AAGTCGTC` the E-score was -0.0616.
For `ACACAACG`, the E-score was -0.0393.
`AAGGGTTA` has an E-score of -0.054.
For `AAGACCTT`, the E-score was -0.102.

Sample 2
Target: RNA binding protein fox-1 homolog 2, RRM domain, GST-SBP tag (RBFOX2, Homo sapiens, UniProt O43251-10, residues 100-194)
Method: RNA Bind-n-Seq
Molecule type: RNA
Medium: in vitro
Concentration: 365 nM
Setting: natural RNA segment, single round, ends assumed
Reference: no-protein control
Direction: higher = stronger binding
Residues (chain): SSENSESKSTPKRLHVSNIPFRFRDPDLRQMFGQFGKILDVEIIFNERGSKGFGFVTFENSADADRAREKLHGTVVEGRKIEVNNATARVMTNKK
Under “RBNS enrichment (R)”, `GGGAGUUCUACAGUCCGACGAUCAAUAGAGAACUUCUAGUGUAUGGAUUUAAAGAUUUCUCUUUUUCAUUCAUAUACCAUUUUAUGAGUUCUGUAUAAUUUUUUGUGGUUUUUGUUUUGUUGAGUUAAAGUAUUGGAAUUCUCGGGUGCCAA` is recorded as 24.
`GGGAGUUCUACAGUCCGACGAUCAACAUCCCAGGAAUGAGCUAUAAGACUCCAUUGCUUUCUGGACUUUAGUGACCAGCUGAUCUUCCCUUGGAUCCUCCAAUAAAGGGGAAAAAAUACUUGUCUUAUGUUGUUGGAAUUCUCGGGUGCCAA`: “RBNS enrichment (R)” 0.408.
`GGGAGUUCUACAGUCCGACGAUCUAACUGAACAUAUUUUUUAGGCAAGUCAGAAAGAGAACAUGGUCACCCAAAAGCAACUGUAACUCAGAAAUUAAGUUACUCAGAAAUUAAGUAGCUCAGAAAUUAAGAAAUGGAAUUCUCGGGUGCCAA` — result for “RBNS enrichment (R)”: 0.351.
For `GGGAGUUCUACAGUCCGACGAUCUGUGUCGCCCUAUAUUGAGGGCUCAAGCUUUCCCUUGUUUUUUGAAAGGGGUUUAUGUAUAAAUAUAUUUUAUGCCUUUUUAUUACAAGUCUUGUACUCAAUGACUUUUGUGGAAUUCUCGGGUGCCAA`, “RBNS enrichment (R)” read 0.347.
Under “RBNS enrichment (R)”, `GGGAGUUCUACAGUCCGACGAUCAACCACCCCAGUGGGGUCUACCUGGGCCGGGACACACUGUACCCACCAUGUGGGGAGCGGGAGCAGGACUACUGUGCCCUUGGCCUGACGUGUGGGGAGAGAGGAGCAUGUGGAAUUCUCGGGUGCCAA` is recorded as 0.517.
For `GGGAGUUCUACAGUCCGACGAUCCAUUUUCAUGGCAGACCUAAGCUCAGACCCUGCCUUGUCCUGGCAAGCAUAGGUUUUCCCAGACCACAAUGCUGAUAUAUCUUAUUUAAUGCAGACUGUAUUCUUGCAGCUGGAAUUCUCGGGUGCCAA`, “RBNS enrichment (R)” read 0.41.
`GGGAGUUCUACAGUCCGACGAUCCUCUCAUGCUGUUUCUCUCAGAUGUUCCCAUGAUGGUUGCCAAGGACACUUGAUAGAAAGACUACUGGUUAAACACAAUAAACAAAGUUCAUUAUUCACUUAUUAGCAAGUGGAAUUCUCGGGUGCCAA`: “RBNS enrichment (R)” 0.73.
For `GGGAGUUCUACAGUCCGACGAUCAUACAAGUCGUGCAGAGCAUGAAGCAGCUUACCUAACUCUUAAACUAUCCUAAGCAAUGUGUGCUUGCCUGUUAGUGAGGGUGUAGGUUGAGCCCAAGUGGUGGAGUCCUUGGAAUUCUCGGGUGCCAA`, “RBNS enrichment (R)” read 2.51.
Under “RBNS enrichment (R)”, `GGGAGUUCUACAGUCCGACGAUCUCUUACUAGGAGCACAUUCUUUGCCUGCCUUCCCUUCAUCCUAUCCUCUUUGCUUGCUCUCACCUCAGGAAUUGCUUGGAUUGCUACAUGGACCCCCUGAGACUAUCAUUUGGAAUUCUCGGGUGCCAA` is recorded as 5.08.
Under “RBNS enrichment (R)”, `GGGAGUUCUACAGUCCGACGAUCUACCUGAGGUGGGGGGUUCCAUUCUACGAAGAGAGGUGGCGCUCCUUCCUUGACAUCCAGUUCCUCCUUCAGGCUCAAACACCACCUCCUUUCUUCAGGACCUGCACUUAUGGAAUUCUCGGGUGCCAA` is recorded as 1.13.
For `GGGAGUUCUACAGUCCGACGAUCAUCUCUGUGAUAGAUUAUAUUUAUCCUAAUCUGUUGAUACCUCUGUUAAUUUGUUUUAAGAGAAUUAUAUUUUUUGGAAUUUACAGAGAAUUGCAUUCAUGGCUUUCAAUUGGAAUUCUCGGGUGCCAA`, “RBNS enrichment (R)” read 0.435.
`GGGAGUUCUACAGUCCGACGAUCAUGCUUUUGGGUUUUUAAUAUGCCACUUCUGAGUGAAAACAUCUCGUGGAGUCAUUGUGUUCAGCUCUGAGAAGAACAAAGAUUCAUAGUUCUGUACAUGUGGCUGGAUUUGGAAUUCUCGGGUGCCAA` — result for “RBNS enrichment (R)”: 0.586.

Sample 3
Target: Fragile X messenger ribonucleoprotein 1, C-terminal low-complexity region (Fmr1, Mus musculus, UniProt P35922)
Method: RNA Bind-n-Seq
Molecule type: RNA
Medium: in vitro
Concentration: 200 nM
Setting: whole 134-nt RNA, ends assumed
With: 150 mM KCl
Reference: input library
Direction: higher = stronger binding
For `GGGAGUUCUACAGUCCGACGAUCCAAGUCCUGUGCUACACAUCGUAUGUACCGAAUCGGUUUUUUUGGUUUUUGGAGGAAAGUAUUAUGUUACGCCGUUCGGAUCUGCACUUCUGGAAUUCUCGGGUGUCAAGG`, the log2 enrichment was -0.607.
The log2 enrichment of `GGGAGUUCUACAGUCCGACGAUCCCUGUGCUACACAUCGUAUGUACCGAAUCGGGGUUUUUGGGGUUUUUUUGGGGUUUGGGGAAAGUAUUAUGUUACGCCGUUCGGAUCUGCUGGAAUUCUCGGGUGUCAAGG` is reported as 0.558.
With `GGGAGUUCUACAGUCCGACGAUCGCAGGAAGUAAAAACAAAUGGAAAUGCUUCGGAUAGUGGCAGGCGUGGGGGUUGCUAAGGAAAGGGUGGGAUGGGAGUGGGUAAAGAGUUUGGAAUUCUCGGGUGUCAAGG` the log2 enrichment was 0.472.
For `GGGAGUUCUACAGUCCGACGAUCAAGAUUUAGAGAUGAAUUAAAUUUAAUUAGGGGUUGCUAAGAAGCGAGCACUGACCAGAUAAGAAUGCUGGUUUUCCUAAAUGCAGUGAAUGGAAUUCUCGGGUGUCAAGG`, the log2 enrichment was -0.499.
`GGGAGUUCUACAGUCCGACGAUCUGGCCCUGGUGGCAUGCGGGGAGGAAGAGGUGGCCUCAUGGAUCGUGGUGGUCCCGGUGGAAUGUUAAGAGGUGGCCGUGGUGGAGACAGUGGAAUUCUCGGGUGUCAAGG` gave a log2 enrichment of 0.0164.
For `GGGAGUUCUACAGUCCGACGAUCAGUGGGUUUGUUGAAGCAGUUGCUGGUGCAACAGCUAGGUUUGACUGAGAAGAGCGUUCAGGAAGACUGGCAACAUUUCCCAAGAUACAGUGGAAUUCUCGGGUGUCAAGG`, the log2 enrichment was -1.78.
`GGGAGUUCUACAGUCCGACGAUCCACAGACAACACGCACCCACACAGACACAGAGGGAAGGGGUUGGGAUGGGGACAGCGUGCACAGCAGGGCGGGGUAGGACCCCAGCCCCUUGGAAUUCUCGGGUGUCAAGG` has a log2 enrichment of 1.26.
For `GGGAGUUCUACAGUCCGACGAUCUAACUUUAGAGGAGGAUCUGAUGGAUAUGGCAGUGGACGUGGAUUUGGGGAUGGCUAUAAUGGGUAUGGAGGAGGACCCGGAGGUGGCAAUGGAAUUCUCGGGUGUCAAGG`, the log2 enrichment was 0.166.
The log2 enrichment of `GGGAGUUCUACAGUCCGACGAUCAGUCCUGUGCUACACAUCGUAUGUACCGAAUCAAACCCCCAAAUUUAAAUUUUUAAAAAAGUAUUAUGUUACGCCGUUCGGAUCUGCACUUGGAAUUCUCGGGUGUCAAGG` is reported as 0.0809.
`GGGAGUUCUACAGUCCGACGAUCCACAGACAACACGCACCCACACAGACACAGAGGGAAGGGGUUGGGAUGGGGACAGGGUGCACAGAAGGGCGGGGUAGGACCCCAGCCCCUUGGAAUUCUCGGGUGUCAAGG` gave a log2 enrichment of 1.25.

Sample 4
Target: Sal-like protein 4, full length isoform B (SALL4, Homo sapiens, UniProt Q9UJQ4-2, residues 1-616)
Method: universal PBM
Molecule type: double-stranded DNA, one strand shown
Medium: in vitro
Concentration: not given
Setting: 8-mer, flanks averaged, mean of replicates
Direction: higher = stronger binding
For `CTCTGAAC`, the E-score was -0.0934.
With `AGGATCGC` the E-score was -0.159.
`ACGCGAGG` gave an E-score of -0.171.
`AGGGTTTG` has an E-score of -0.127.
`AACAGTAC` has an E-score of 0.0957.
For `CACCCCCG`, the E-score was -0.153.
`CAGCCCGC` gave an E-score of -0.384.
The E-score of `CGGCATGC` is reported as -0.259.
The E-score of `CAACACAC` is reported as 0.0507.
`ATATTAGC` gave an E-score of 0.311.
For `CTTCAAAG`, the E-score was 0.208.
`AGACTCCA` has an E-score of -0.175.
`ACCATTTC` gave an E-score of 0.168.
With `ATACGGGC` the E-score was -0.147.
For `AGTTTCCC`, the E-score was -0.112.
With `ACAACTAC` the E-score was 0.102.
The E-score of `AGCAACAT` is reported as 0.0751.
For `AAGAAGTA`, the E-score was 0.0882.
With `GGGAGCAA` the E-score was -0.163.
The E-score of `CATGTCGA` is reported as -0.0506.
The E-score of `AATAACGC` is reported as 0.157.
With `CCCTCGCC` the E-score was -0.324.
`AAGTTTGC` has an E-score of 0.0563.
The E-score of `CAACGTTA` is reported as 0.133.
With `AAAGGGTG` the E-score was 0.0258.

Some of these lines once more (sample 4):
The E-score of `CGGCATGC` is reported as -0.259.
The E-score of `CAACACAC` is reported as 0.0507.
`ATATTAGC` gave an E-score of 0.311.
For `CTTCAAAG`, the E-score was 0.208.
`AGACTCCA` has an E-score of -0.175.
`ACCATTTC` gave an E-score of 0.168.
With `ATACGGGC` the E-score was -0.147.
For `AGTTTCCC`, the E-score was -0.112.
With `ACAACTAC` the E-score was 0.102.
